Published values from different studies.
Numbers after ± are the reported error.
F2 gamma-thrombin: Prothrombin, gamma-thrombin (F2, Homo sapiens, UniProt P00734)
Carbonic anhydrase: Carbonic anhydrase (Vibrio cholerae serotype O1, UniProt Q9KMP6)
Sequence of UniProt Q9JI35 (whole entry, looked up): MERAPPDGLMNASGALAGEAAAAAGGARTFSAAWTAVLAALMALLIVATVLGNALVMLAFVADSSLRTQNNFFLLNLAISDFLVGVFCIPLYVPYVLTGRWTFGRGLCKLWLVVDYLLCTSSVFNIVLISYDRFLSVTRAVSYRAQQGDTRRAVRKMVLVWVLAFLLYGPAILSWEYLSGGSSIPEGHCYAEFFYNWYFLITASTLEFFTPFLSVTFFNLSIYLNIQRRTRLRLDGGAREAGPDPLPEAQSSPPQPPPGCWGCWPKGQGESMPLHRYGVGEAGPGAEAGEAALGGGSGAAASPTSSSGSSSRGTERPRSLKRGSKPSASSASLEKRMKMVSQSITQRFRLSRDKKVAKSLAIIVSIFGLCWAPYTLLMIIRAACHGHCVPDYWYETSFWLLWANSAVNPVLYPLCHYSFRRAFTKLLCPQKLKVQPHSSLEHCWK
Sequence of UniProt P41143 (whole entry, unmodified, looked up): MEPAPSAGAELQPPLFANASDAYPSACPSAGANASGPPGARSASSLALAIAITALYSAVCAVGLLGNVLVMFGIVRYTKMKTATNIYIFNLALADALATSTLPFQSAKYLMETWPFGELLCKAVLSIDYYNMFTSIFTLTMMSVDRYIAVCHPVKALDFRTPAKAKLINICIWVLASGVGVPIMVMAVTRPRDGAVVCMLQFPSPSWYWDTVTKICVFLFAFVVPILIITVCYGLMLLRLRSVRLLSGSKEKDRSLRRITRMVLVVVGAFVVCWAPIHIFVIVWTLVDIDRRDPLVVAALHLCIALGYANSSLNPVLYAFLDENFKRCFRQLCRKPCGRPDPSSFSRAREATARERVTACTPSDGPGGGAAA

CCN(CC)C(=O)c1ccc(C(c2cccc(O)c2)N2CC(C)N(Cc3ccccc3)CC2C)cc1 (stereo not drawn)
Ki (OPRD1 (Homo sapiens, UniProt P41143, S143C)): 0.00012 ± 2e-05 µM

CC[C@H](C)[C@H](NC(=O)[C@@H]1CCCN1C(=O)[C@H](CCC(=O)O)NC(=O)[C@H](CCSC)NC(=O)CNC(=O)[C@H](CC(N)=O)NC(=O)CNC(=O)CNC(=O)[C@H](CCC(=O)O)NC(=O)CNC(=O)[C@H](CCCNC(=N)N)NC(=O)[C@H](CCC(N)=O)NC(=O)[C@H](Cc1ccc(O)cc1)NC(=O)[C@H](CC(C)C)NC(=O)[C@H](CCCCN)NC(=O)[C@@H]1CCCN1C(=O)[C@H](CCC(N)=O)NC(=O)[C@H](C)NC(=O)[C@@H](NC(=O)[C@H](CCC(=O)O)NC(=O)[C@H](C)NC(=O)[C@H](CCC(=O)O)NC(=O)[C@@H](NC(=O)[C@@H]1CCCN1C(=O)[C@@H](N)CCCCN)C(C)C)C(C)C)C(=O)N1CCC[C@H]1C(=O)N[C@@H](CCC(=O)O)C(=O)N[C@@H](CC(=O)O)C(=O)N[C@@H](Cc1ccc(OS(=O)(=O)O)cc1)C(=O)N[C@@H](CC(C)C)C(=O)N[C@@H](CC(N)=O)C(=O)N[C@@H](CCC(=O)O)C(=O)N[C@@H](C)C(=O)N[C@@H](CC(C)C)C(=O)N[C@@H](CC(N)=O)C(=O)N[C@@H](C)C(=O)O
Ki (F2 gamma-thrombin; pH 8): 20.4 ± 1.94 µM

CCCCCCC1CCCC(=O)O1 (stereo not drawn)
Ki (Carbonic anhydrase; enzyme activity, inhibitor, stopped-flow): 38.8 µM

CC[C@H](C)[C@H](NC(=O)[C@@H]1CCCN1C(=O)[C@H](CCC(=O)O)NC(=O)[C@H](CCSC)NC(=O)CNC(=O)[C@H](CC(N)=O)NC(=O)CNC(=O)CNC(=O)[C@H](CCC(=O)O)NC(=O)CNC(=O)[C@H](CCCNC(=N)N)NC(=O)[C@H](CCC(N)=O)NC(=O)[C@H](Cc1ccc(O)cc1)NC(=O)[C@H](CC(C)C)NC(=O)[C@H](CCCCN)NC(=O)[C@@H]1CCCN1C(=O)[C@H](CCC(N)=O)NC(=O)[C@H](C)NC(=O)[C@@H](NC(=O)[C@H](CCC(=O)O)NC(=O)[C@H](C)NC(=O)[C@H](CCC(=O)O)NC(=O)[C@@H](NC(=O)[C@@H]1CCCN1C(=O)[C@@H](N)CCCCN)C(C)C)C(C)C)C(=O)N1CCC[C@H]1C(=O)N[C@@H](CCC(=O)O)C(=O)N[C@@H](CC(=O)O)C(=O)N[C@@H](Cc1ccc(O)cc1)C(=O)N[C@@H](CC(C)C)C(=O)N[C@@H](CCC(N)=O)C(=O)O
Ki (F2 gamma-thrombin; pH 8): 59.8 ± 3.21 µM

O=c1ccn([C@@H]2O[C@H](COP(=O)(O)OP(=O)(O)O)[C@@H](O)[C@H]2O)c(=O)[nH]1
Ki (toxin B, glucosyltransferase domain (Clostridioides difficile, UniProt A0A9R0CDJ3)): 22.6 ± 0.6 µM

CCCCCCCCCCCC(=O)NC1CCOC1=O (stereo not drawn)
Ki (Carbonic anhydrase; enzyme activity, inhibitor, stopped-flow): > 100 µM

CC[C@H](C)[C@H](NC(=O)[C@@H]1CCCN1C(=O)[C@H](CCC(=O)O)NC(=O)[C@H](CCSC)NC(=O)CNC(=O)[C@H](CC(N)=O)NC(=O)CNC(=O)CNC(=O)[C@H](CCC(=O)O)NC(=O)CNC(=O)[C@H](CCCNC(=N)N)NC(=O)[C@H](CCC(N)=O)NC(=O)[C@H](Cc1ccc(O)cc1)NC(=O)[C@H](CC(C)C)NC(=O)[C@H](CCCCN)NC(=O)[C@@H]1CCCN1C(=O)[C@H](CCC(N)=O)NC(=O)[C@H](C)NC(=O)[C@@H](NC(=O)[C@H](CCC(=O)O)NC(=O)[C@H](C)NC(=O)[C@H](CCC(=O)O)NC(=O)[C@@H](NC(=O)[C@@H]1CCCN1C(=O)[C@@H](N)CCCCN)C(C)C)C(C)C)C(=O)N1CCC[C@H]1C(=O)N[C@@H](CCC(=O)O)C(=O)N[C@@H](CC(=O)O)C(=O)N[C@@H](Cc1ccc(O)cc1)C(=O)N[C@@H](CC(C)C)C(=O)N[C@@H](CC(=O)O)C(=O)N[C@@H](CC(=O)O)C(=O)N[C@@H](CCC(=O)O)C(=O)N[C@@H](CO)C(=O)O
Ki (Prothrombin (F2, Homo sapiens, UniProt P00734); enzyme activity, inhibitor, absorbance; pH 8): 8.39e-05 µM

CCCCC1CCC(=O)O1 (stereo not drawn)
Ki (Carbonic anhydrase; enzyme activity, inhibitor, stopped-flow): 59.6 µM

CCN(CC)C(=O)[C@@H]1C=C2c3cccc4c3c(cn4C(=O)c3ccco3)C[C@H]2N(C)C1
Ki (Histamine H3 receptor (Cavia porcellus, UniProt Q9JI35); ligand displacement, radioligand): > 10 µM
